Published values collected from several papers.
A part holds a random share of what one study measured.
Sequence of UniProt P53779 (whole entry, looked up): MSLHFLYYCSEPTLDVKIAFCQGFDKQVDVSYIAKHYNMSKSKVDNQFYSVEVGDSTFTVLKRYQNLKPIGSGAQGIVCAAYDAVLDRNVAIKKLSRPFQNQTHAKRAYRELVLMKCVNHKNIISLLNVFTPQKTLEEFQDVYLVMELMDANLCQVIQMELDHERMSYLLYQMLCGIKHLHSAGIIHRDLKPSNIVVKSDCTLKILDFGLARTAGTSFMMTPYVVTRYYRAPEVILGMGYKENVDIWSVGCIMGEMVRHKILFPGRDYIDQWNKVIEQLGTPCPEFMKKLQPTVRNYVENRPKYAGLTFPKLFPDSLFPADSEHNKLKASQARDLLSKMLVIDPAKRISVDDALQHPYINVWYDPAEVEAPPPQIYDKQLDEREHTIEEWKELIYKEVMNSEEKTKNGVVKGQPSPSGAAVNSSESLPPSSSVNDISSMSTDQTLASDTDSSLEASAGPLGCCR
Sequence of UniProt P23443 (whole entry, looked up): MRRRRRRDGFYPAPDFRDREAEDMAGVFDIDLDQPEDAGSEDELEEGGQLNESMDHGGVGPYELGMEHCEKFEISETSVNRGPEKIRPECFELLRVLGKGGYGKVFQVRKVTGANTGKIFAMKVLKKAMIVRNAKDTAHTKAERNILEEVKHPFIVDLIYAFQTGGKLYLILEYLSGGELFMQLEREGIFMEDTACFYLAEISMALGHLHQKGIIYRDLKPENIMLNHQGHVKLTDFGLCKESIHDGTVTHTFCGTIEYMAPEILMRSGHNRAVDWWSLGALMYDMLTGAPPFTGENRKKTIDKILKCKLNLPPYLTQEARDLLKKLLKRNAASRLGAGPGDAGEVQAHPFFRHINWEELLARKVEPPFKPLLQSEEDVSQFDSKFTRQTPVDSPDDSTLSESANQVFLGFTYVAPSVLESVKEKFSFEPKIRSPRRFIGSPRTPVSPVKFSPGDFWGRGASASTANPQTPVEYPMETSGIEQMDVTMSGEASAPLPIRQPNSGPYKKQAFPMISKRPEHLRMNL
Sequence of UniProt Q08881 (whole entry, looked up): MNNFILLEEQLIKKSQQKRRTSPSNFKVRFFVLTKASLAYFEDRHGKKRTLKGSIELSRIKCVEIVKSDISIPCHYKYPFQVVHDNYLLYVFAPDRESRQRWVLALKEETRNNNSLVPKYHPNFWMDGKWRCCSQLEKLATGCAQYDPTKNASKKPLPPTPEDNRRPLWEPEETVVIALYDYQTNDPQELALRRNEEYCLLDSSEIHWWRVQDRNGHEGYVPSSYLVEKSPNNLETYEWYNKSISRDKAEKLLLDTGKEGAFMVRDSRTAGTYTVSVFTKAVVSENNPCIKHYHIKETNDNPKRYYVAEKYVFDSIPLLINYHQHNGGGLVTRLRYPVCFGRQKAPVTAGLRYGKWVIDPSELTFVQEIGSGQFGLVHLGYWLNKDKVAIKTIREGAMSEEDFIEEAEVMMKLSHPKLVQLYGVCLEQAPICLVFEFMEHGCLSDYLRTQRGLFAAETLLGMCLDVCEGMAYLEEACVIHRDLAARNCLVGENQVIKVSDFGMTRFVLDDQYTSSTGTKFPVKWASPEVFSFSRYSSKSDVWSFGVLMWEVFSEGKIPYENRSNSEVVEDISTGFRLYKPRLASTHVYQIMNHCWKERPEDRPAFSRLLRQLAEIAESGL
Sequence of UniProt P11802 (whole entry, looked up): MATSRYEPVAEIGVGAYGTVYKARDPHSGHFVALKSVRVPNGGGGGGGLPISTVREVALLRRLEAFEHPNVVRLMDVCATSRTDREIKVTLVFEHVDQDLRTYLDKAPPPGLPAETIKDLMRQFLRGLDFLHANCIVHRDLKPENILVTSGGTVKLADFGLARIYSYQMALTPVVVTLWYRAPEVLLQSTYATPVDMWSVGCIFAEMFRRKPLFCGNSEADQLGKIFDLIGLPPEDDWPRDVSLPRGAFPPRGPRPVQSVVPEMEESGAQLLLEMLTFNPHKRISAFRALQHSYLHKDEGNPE
Sequence of UniProt Q9UHD2 (whole entry, looked up): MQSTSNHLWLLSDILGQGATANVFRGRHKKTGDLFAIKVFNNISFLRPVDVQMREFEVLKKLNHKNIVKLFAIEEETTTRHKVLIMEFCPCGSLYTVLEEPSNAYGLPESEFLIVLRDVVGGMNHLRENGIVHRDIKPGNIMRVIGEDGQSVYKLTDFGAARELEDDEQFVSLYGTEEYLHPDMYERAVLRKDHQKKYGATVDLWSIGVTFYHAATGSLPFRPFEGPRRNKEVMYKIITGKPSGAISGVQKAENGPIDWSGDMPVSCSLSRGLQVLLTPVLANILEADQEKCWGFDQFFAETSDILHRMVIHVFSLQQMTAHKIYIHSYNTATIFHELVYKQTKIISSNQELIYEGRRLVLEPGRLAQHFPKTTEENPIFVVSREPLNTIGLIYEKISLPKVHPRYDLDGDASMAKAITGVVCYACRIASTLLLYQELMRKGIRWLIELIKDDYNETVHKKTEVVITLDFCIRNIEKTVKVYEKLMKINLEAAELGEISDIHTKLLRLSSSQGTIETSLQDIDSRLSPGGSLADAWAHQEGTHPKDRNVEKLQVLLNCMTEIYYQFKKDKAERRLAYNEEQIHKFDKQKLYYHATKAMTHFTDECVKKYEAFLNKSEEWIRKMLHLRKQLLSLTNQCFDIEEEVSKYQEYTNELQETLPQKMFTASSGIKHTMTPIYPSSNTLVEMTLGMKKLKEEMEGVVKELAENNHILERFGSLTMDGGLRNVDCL

Study 1
Cell line: HaCaT
Concentration: 100 µM
Time: 60 h
| Structure (SMILES) | viability |
| --- | --- |
| Nc1ccc(O)c(C(=O)O)c1 | 131% |
| CCC(=O)c1c(O)cc(O)cc1O | 118% |
| NC(=O)N[C@@H](CCC(=O)O)C(=O)O | 125% |

Study 2
Compound: CC(C)n1cnc(-c2ccc(F)cc2)c1-c1ncc(C(=O)Nc2ccc(N3CCN(C)CC3)cc2)[nH]1
Technique: phase 2a trial
Species: idiopathic pulmonary fibrosis patients
| dose | notes | patients with coagulopathy [%] |
| --- | --- | --- |
| 30 mg once daily | adverse event grade 5 | 0 |
| 60 mg once daily | adverse event grade 4 | 0 |
| 60 mg once daily | adverse event grade 2 | 0 |
| 60 mg once daily | adverse event grade 3 | 0 |

Study 3
Species: human
Medium: microsomes or S9
Concentration: 2 µM
Time: 0.5 h
| Structure (SMILES) | remaining compound [%] |
| --- | --- |
| CC(C)c1oc(C2CCCN2S(=O)(=O)c2ccc3c(c2)COC3)nc1-c1ccccc1 (stereo not drawn) | 8.76 |
| COc1cc(=O)n(C)cc1C(=O)NCCc1ccc(S(N)(=O)=O)cc1 | 74 |
| CN(Cc1ccccc1)C(=O)COc1ccc2c3ccccc3n(C(=O)c3ccc(C(C)(C)C)cc3)c2c1 | 7.15 |

Study 4
SMILES: Cc1cc(-n2nc(Cc3cc(F)cc(C(F)(F)F)c3)nc2C)ccc1C(N)=O
Effect on: cell-free assay
Technique: competition with immobilised ligand
Concentration: 1 µM
| target | remaining binding [%] |
| --- | --- |
| Ribosomal protein S6 kinase beta-1 (RPS6KB1, Homo sapiens, UniProt P23443) | 100 |
| Tyrosine-protein kinase ITK/TSK (ITK, Homo sapiens, UniProt Q08881) | 93 |
| Cyclin-dependent kinase 4, with cyclin D1 (CDK4, Homo sapiens, UniProt P11802) | 100 |
| Mitogen-activated protein kinase 10 (MAPK10, Homo sapiens, UniProt P53779) | 100 |
| Serine/threonine-protein kinase TBK1 (TBK1, Homo sapiens, UniProt Q9UHD2) | 89 |

Study 5
Target: Myosin light chain kinase 2, skeletal/cardiac muscle (MYLK2, Homo sapiens, UniProt Q9H1R3)
Sequence of UniProt Q9H1R3 (whole entry, looked up): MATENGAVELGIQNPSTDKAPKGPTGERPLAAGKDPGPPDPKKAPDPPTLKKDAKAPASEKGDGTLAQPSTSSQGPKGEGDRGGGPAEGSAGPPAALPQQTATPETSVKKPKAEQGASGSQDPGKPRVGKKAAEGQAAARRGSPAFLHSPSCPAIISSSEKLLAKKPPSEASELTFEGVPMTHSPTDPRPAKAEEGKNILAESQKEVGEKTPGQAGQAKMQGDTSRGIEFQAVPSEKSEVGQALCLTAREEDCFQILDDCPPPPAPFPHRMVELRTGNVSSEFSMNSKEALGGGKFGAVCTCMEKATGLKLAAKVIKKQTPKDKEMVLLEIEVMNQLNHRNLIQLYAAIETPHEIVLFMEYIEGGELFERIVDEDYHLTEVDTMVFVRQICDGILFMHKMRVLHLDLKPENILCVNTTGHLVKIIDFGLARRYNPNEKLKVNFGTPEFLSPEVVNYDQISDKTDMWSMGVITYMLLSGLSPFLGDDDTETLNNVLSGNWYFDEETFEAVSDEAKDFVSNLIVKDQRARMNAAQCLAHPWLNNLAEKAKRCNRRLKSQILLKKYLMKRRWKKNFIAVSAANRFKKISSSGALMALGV
Effect on: enzyme activity
Action: inhibitor
Concentration: 0.5 µM
Reference: control
| Compound | remaining activity |
| --- | --- |
| O=c1c2ccccc2[nH]c(=S)n1CCN1CCC(=C(c2ccc(F)cc2)c2ccc(F)cc2)CC1 | 99.9% |
| COc1cc2ncnc(Nc3ccc(F)c(Cl)c3)c2cc1OCCCN1CCOCC1 | 99.2% |
| C#Cc1cccc(Nc2ncnc3cc(OCCOC)c(OCCOC)cc23)c1 | 100% |
| CC(C)[C@H](CO)Nc1nc(Nc2cc(N)cc(Cl)c2)c2ncn(C(C)C)c2n1 | 99.5% |
| COc1cc2ncnc(Nc3ccc(Oc4ccccc4)cc3)c2cc1OC | 101% |
| CCOC(=O)c1c(C)[nH]c(/C=C2\C(=O)Nc3ccccc32)c1C | 74.7% |
| O=C1NC(=O)C(c2cn(CCCn3ccnc3)c3ccccc23)=C1Nc1ccccc1 | 95.7% |
| O=C(CCCc1ccc(-c2ccccc2F)cc1)Nc1ccc(O)cc1 | 97.8% |
| COc1cc2nccc(Oc3ccc(NC(=S)NC(=O)c4ccccc4C)cc3)c2cc1OC | 26.8% |
| Nc1ccc2ncnc(NCCc3ccc(Oc4ccccc4)cc3)c2c1 | 97.6% |
| Oc1ccc(-c2nc(-c3ccncc3)c(-c3ccc(F)cc3)[nH]2)cc1 | 93.5% |
| O=C1NC(=O)C(c2cn(CCCO)c3ncccc23)=C1c1cnccn1 | 81.1% |
| CNC(=O)c1cc(Oc2ccc(NC(=O)Nc3ccc(Cl)c(C(F)(F)F)c3)cc2)ccn1 | 96.1% |
| Nc1[nH]nc2nc3ccccc3nc12 | 90.5% |
| NCCNc1ncc(C(N)=O)c(Nc2cccc(C(F)(F)F)c2)n1 | 90.1% |

A few entries again (study 3):
| Structure (SMILES) | remaining compound [%] |
| --- | --- |
| COc1cc(=O)n(C)cc1C(=O)NCCc1ccc(S(N)(=O)=O)cc1 | 74 |
| CN(Cc1ccccc1)C(=O)COc1ccc2c3ccccc3n(C(=O)c3ccc(C(C)(C)C)cc3)c2c1 | 7.15 |
| CC(C)c1oc(C2CCCN2S(=O)(=O)c2ccc3c(c2)COC3)nc1-c1ccccc1 (stereo not drawn) | 8.76 |
